{"data": "Measured values collected from several papers", "note": "Parts stem from different laboratories: compare values within a part only. Changes are numbered by the printed parent chain."}
{"data": "Set 1", "target": "CCNB2, cyclin fold, Cln2 fusion (human)", "technique": "yeast growth competition, sequencing", "sample": "yeast", "setting": "weak parent motif", "baseline": "not given", "direction": "higher = stronger binding", "starting sequence": "DBF4 docking peptide (human); DDIVSKLVFDFVE"}
{"Change": "DDAVSKLVFDFVE [I3A]", "normalised enrichment score": -0.541}
{"Change": "DDIVSKLVFAFVE [D10A]", "normalised enrichment score": -0.607}
{"Change": "DDIVSKLVFDFVA [E13A]", "normalised enrichment score": -0.174}
{"Change": "DDIVSALVFDFVE [K6A]", "normalised enrichment score": -0.415}
{"Change": "DDIVSKLVADFVE [F9A]", "normalised enrichment score": -0.212}
{"Change": "DAIVSKLVFDFVE [D2A]", "normalised enrichment score": 0.288}
{"Change": "DDIVSKLAFDFVE [V8A]", "normalised enrichment score": -0.423}
{"data": "Set 2", "target": "Ras GTPase-activating protein-binding protein 1, full length (G3BP1, Homo sapiens, UniProt Q13283)", "technique": "RNA Bind-n-Seq", "form": "RNA", "sample": "in vitro", "concentration": "200 nM", "setting": "whole 134-nt RNA, ends assumed", "together with": "150 mM KCl", "baseline": "input library", "direction": "higher = stronger binding", "constant ends, left off below": "GGGAGUUCUACAGUCCGACGAUC … UGGAAUUCUCGGGUGUCAAGG", "sequence of UniProt Q13283 (whole entry, looked up)": "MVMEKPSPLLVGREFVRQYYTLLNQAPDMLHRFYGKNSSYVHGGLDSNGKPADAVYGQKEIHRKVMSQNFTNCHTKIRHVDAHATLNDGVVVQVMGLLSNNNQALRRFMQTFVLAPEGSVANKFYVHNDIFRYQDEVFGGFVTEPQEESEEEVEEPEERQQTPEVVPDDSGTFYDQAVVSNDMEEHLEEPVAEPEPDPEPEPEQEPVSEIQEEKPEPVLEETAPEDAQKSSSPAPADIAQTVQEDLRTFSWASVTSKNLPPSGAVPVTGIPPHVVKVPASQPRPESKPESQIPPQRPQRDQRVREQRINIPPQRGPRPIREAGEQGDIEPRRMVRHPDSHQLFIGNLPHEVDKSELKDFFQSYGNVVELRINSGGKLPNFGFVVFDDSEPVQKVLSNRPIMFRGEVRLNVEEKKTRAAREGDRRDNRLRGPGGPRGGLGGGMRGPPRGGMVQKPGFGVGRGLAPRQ"}
{"Oligonucleotide": "UUCAAGGAAAAACAAGAGGAGCAGGCUCGCCUCCUUGAUGAACUGGCAGGCAAGCUACAAAGCCUAGACCUUUCAGCCGCUGCCGAAAUG", "log2 enrichment": -1.23}
{"Oligonucleotide": "ACCAAACAGGUGGGCAUCUUUGGGAAGUGGGGCAAGGGGGGGAUAGGGAGGGGGGUAACACUUUGGGAACAGGUGGUCCCAGGUCGUUUC", "log2 enrichment": 1.3}
{"Oligonucleotide": "AAGUCCUGUGCUACACAUCGUAUGUACCGAAUCGGUUUUUGGUUUUUUUGGAAAGGAAAGUAUUAUGUUACGCCGUUCGGAUCUGCACUU", "log2 enrichment": -1.49}
{"Oligonucleotide": "GUCCUGUGCUACACAUCGUAUGUACCGAAUCGGCCCCCGGGGCCCCCGGGCCCCCGGGGAAAGUAUUAUGUUACGCCGUUCGGAUCUGCA", "log2 enrichment": -0.945}
{"Oligonucleotide": "GUGCUACACAUCGUAUGUACCGAAUCGGGGAAAAAAAGGGGUUUUUUUGGGGAAAAAAAGGGGAAAGUAUUAUGUUACGCCGUUCGGAUC", "log2 enrichment": -0.26}
{"Oligonucleotide": "UGUGCUACACAUCGUAUGUACCGAAUCGGGUUUUUUUGGGGUUUUUUUGGGGUUUUUUUGGGAAAGUAUUAUGUUACGCCGUUCGGAUCU", "log2 enrichment": -0.777}
{"Oligonucleotide": "UUUGCAGGGAGUGGUACGGGUAUCACUUUCCGGAGCUGGUGAAGAUCAUCAACGACAAUGCCACAUACUGCCGUCUUGCCCAGUUUAUUG", "log2 enrichment": -0.432}
{"Oligonucleotide": "GUCCUGUGCUACACAUCGUAUGUACCGAAUCGGGGUUUUUGGUUUUUGGGGUUUUUGGAAAGUAUUAUGUUACGCCGUUCGGAUCUGCAC", "log2 enrichment": -0.585}
{"Oligonucleotide": "UCCUCAAGUCCUGUGCUACACAUCGUAUGUACCGAAUCGGUGGUUUGGAGGAAAGUAUUAUGUUACGCCGUUCGGAUCUGCACUUCCAGC", "log2 enrichment": -0.533}
{"Oligonucleotide": "UUCUCCUGCCCCGAAGCUCGCUGUGCGUGUGCGUGUGUGUGUCCCUCCGCCAACGCCGCCACCUCAGCCCGGCAAAUGAACUCCGUCCGA", "log2 enrichment": 1.04}
{"Oligonucleotide": "UGGGAGGUGGAUUUUAUUUAUUUUUUUAGCUCAUUUCCAGGGGUGGGAAUUUUUUUUUAAUAUGUGUCAUGAAUAAAGUUGUUUUUGAAA", "log2 enrichment": 0.219}
{"Oligonucleotide": "UUCCUCAAGUCCUGUGCUACACAUCGUAUGUACCGAAUCGGGAGGAGGAGGAAAGUAUUAUGUUACGCCGUUCGGAUCUGCACUUCCAGC", "log2 enrichment": -0.661}
{"Oligonucleotide": "UCAAGUCCUGUGCUACACAUCGUAUGUACCGAAUCGGCCCGGGCCCGGCCCGGGGAAAGUAUUAUGUUACGCCGUUCGGAUCUGCACUUC", "log2 enrichment": -1.24}
{"Oligonucleotide": "ACCAUGCAGGUGGGCAUCUUUGGGAAGUGGGGCAAGGGGGGCAUAGGGAGGGGGGUAACACUUUGGGAACAGGUGGUCCCAGGUCGUUUC", "log2 enrichment": 0.965}
{"data": "Set 3", "target": "DDIT3, bZIP domain (human)", "technique": "DHFR protein complementation", "sample": "yeast", "setting": "single substitutions, most at no-binding floor", "baseline": "wild-type JUN-FOS pair", "direction": "higher = stronger binding", "starting sequence": "JUN, bZIP domain (human); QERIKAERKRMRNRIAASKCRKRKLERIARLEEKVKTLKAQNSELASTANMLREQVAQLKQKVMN; partner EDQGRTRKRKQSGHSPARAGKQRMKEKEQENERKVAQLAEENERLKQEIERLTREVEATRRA"}
{"Change": "A57D", "binding fitness [natural log]": 0.0228}
{"Change": "Q41H", "binding fitness [natural log]": -0.15}
{"Change": "E44Q", "binding fitness [natural log]": 0.0196}
{"Change": "V35K", "binding fitness [natural log]": -0.434}
{"Change": "A46H", "binding fitness [natural log]": 0.0579}
{"Change": "I28M", "binding fitness [natural log]": 0.0466}
{"Change": "A40N", "binding fitness [natural log]": -0.0516}
{"Change": "L45Y", "binding fitness [natural log]": -0.588}
{"Change": "S43I", "binding fitness [natural log]": 0.109}
{"Change": "L38F", "binding fitness [natural log]": -0.602}
{"Change": "Q55S", "binding fitness [natural log]": -0.258}
{"Change": "E32Q", "binding fitness [natural log]": -0.222}
{"Change": "T37G", "binding fitness [natural log]": -0.0818}
{"Change": "Q41A", "binding fitness [natural log]": -0.0375}
{"Change": "E33V", "binding fitness [natural log]": -0.296}
{"Change": "R30H", "binding fitness [natural log]": 0.0752}
{"Change": "V56M", "binding fitness [natural log]": 0.0552}
{"Change": "R30D", "binding fitness [natural log]": 0.0555}
{"Change": "K39Q", "binding fitness [natural log]": 0.084}
{"Change": "L52Q", "binding fitness [natural log]": -1.4}
{"Change": "A29F", "binding fitness [natural log]": -0.119}
{"Change": "A29Y", "binding fitness [natural log]": -0.133}
{"Change": "A57H", "binding fitness [natural log]": -0.0282}
{"Change": "S47Q", "binding fitness [natural log]": 0.142}
{"data": "Set 4", "target": "Interferon regulatory factor 5, full length, phosphomimetic (IRF5, Homo sapiens, UniProt Q13568-2, residues 1-514, S451D/S453D/S456D/S462D)", "technique": "protein-binding microarray", "form": "double-stranded DNA, one strand shown", "sample": "in vitro", "concentration": "940 nM top", "setting": "60-bp whole probe", "together with": "salmon DNA 0.4 mg/ml", "baseline": "random background probes", "direction": "higher = stronger binding", "constant ends, left off below": "GCCTAGCAC … GTCTTGATTCGCTTGACGCTGCTG"}
{"Oligonucleotide": "CAAGGAACTCAGAGATTTAAGTGCTAG", "fitted relative affinity [z-score]": 0.0996}
{"Oligonucleotide": "GACGGACTGGACTATCGGGTCGTGCTA", "fitted relative affinity [z-score]": -0.37}
{"Oligonucleotide": "GACGGACTGCTACTGATGACGTGCTAG", "fitted relative affinity [z-score]": -0.406}
{"Oligonucleotide": "GACGGTATCCGTTTCCTGACGTGCTAG", "fitted relative affinity [z-score]": 0.559}
{"Oligonucleotide": "TGACTTTTGAGAGATGGAAACGTGCTA", "fitted relative affinity [z-score]": -0.0024}
{"Oligonucleotide": "GACGGTCTCGGACTGGGGAAGTGCTAG", "fitted relative affinity [z-score]": 0.726}
{"Oligonucleotide": "TACGGACTGGGGACTGGGGACGTGCTA", "fitted relative affinity [z-score]": -0.359}
{"Oligonucleotide": "TAAGGTATCGGGACTGGGTTAGTGCTA", "fitted relative affinity [z-score]": 2.39}
{"Oligonucleotide": "CGTAAGCAAAAATGATTGGTGTGCTAG", "fitted relative affinity [z-score]": -0.198}
{"Oligonucleotide": "TCAGGTTCCCTTTTCCTTTAGTGCTAG", "fitted relative affinity [z-score]": 0.863}
{"Oligonucleotide": "TTAGGTACCGGGTATCGGTTAGTGCTA", "fitted relative affinity [z-score]": 2.95}
{"Oligonucleotide": "TTTGGACTGGGTCTCGGTTAGTGCTAG", "fitted relative affinity [z-score]": 1.48}
{"Oligonucleotide": "TCATTTTAGCTTCTCAAACTGTGCTAG", "fitted relative affinity [z-score]": 0.029}
{"Oligonucleotide": "GACGATCTCACTTTCGAGACGTGCTAG", "fitted relative affinity [z-score]": 2.34}
{"Oligonucleotide": "GACGGTATCGACTATCGGGTCGTGCTA", "fitted relative affinity [z-score]": 5.93}
{"Oligonucleotide": "TCAACTTTCCCCTTCCTACTGTGCTAG", "fitted relative affinity [z-score]": 1.42}
{"Oligonucleotide": "TCAGAATTGAAAATTAGTACTGTGCTA", "fitted relative affinity [z-score]": -0.568}
{"Oligonucleotide": "TTAGGTCTCCTTATCCTATAGTGCTAG", "fitted relative affinity [z-score]": 0.634}
{"Oligonucleotide": "TCACCTACAGGTTCTCTGACTGTGCTA", "fitted relative affinity [z-score]": 0.0139}
{"Oligonucleotide": "GACGGACAGGGTTTCGGGACGTGCTAG", "fitted relative affinity [z-score]": 1.65}
{"Oligonucleotide": "GACAGTTCCGGTTTCGGGACGTGCTAG", "fitted relative affinity [z-score]": 6.21}
{"Oligonucleotide": "CATTGCCTATTTTTCCCCTGGTGCTAG", "fitted relative affinity [z-score]": 1.43}
{"Oligonucleotide": "ATAGGTTTCCTTTCCCTTTAGTGCTAG", "fitted relative affinity [z-score]": 1.81}
{"Oligonucleotide": "TTAGGTATCGGGTATCGGTTTGTGCTA", "fitted relative affinity [z-score]": 7.03}
{"Oligonucleotide": "GACGATCTCAGACTAGAGACGTGCTAG", "fitted relative affinity [z-score]": -0.317}
{"data": "Set 5", "target": "ABI1, truncated, D143A, DHFR fusion (Arabidopsis thaliana)", "technique": "DHFR PCA, deep sequencing", "sample": "yeast", "setting": "methotrexate growth selection, single substitutions", "together with": "(+)-ABA 17 µM", "baseline": "wild-type fitted maximum", "direction": "higher = stronger binding", "starting sequence": "PYL1, truncated, DHFR fusion (Arabidopsis thaliana); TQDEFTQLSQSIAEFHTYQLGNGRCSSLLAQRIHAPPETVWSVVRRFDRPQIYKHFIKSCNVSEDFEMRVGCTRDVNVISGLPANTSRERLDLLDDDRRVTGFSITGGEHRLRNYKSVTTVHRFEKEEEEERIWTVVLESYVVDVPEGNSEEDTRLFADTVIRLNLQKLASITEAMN"}
{"Change": "F103N", "relative binding score": "-19.2%"}
{"Change": "L156V", "relative binding score": "84.1%"}
{"Change": "A175E", "relative binding score": "90.9%"}
{"Change": "L93G", "relative binding score": "-2.15%"}
{"Change": "V143W", "relative binding score": "-3.73%"}
{"Change": "D159R", "relative binding score": "-4.09%"}
{"Change": "R32M", "relative binding score": "78.6%"}
{"Change": "L28W", "relative binding score": "45.6%"}
{"Change": "E131V", "relative binding score": "86.5%"}
{"Change": "R32F", "relative binding score": "65.8%"}
{"Change": "N149T", "relative binding score": "53.6%"}
{"Change": "L164Q", "relative binding score": "88.7%"}
{"Change": "A170Q", "relative binding score": "79.4%"}
{"Change": "L28H", "relative binding score": "7.56%"}
{"Change": "R88C", "relative binding score": "82.2%"}
{"Change": "Y141S", "relative binding score": "-9.53%"}
{"Change": "E125R", "relative binding score": "85.5%"}
{"Change": "E4A", "relative binding score": "73.1%"}
{"Change": "T86H", "relative binding score": "81.2%"}
{"Change": "R90E", "relative binding score": "41.4%"}
{"Change": "V43E", "relative binding score": "1.17%"}
{"Change": "L112I", "relative binding score": "8.97%"}
{"Change": "E4I", "relative binding score": "81.3%"}
{"Change": "A13M", "relative binding score": "71.6%"}
{"Change": "T101E", "relative binding score": "-2.86%"}
